Experimental data from different studies.
Parts stem from different laboratories: compare values within a part only. Changes are numbered by the printed parent chain.

Sample 1
Target: Histone acetyltransferase KAT6A, both winged helices, GST fusion (KAT6A, Homo sapiens, UniProt Q92794, residues 1-181)
Method: protein binding microarray
Form: double-stranded DNA, one strand shown
Medium: in vitro
Tested at: not given
Notes: 8-mer, flanks averaged, mean of 2 arrays, mostly near background
Baseline: not given
Reading: higher = stronger binding
Residues (chain): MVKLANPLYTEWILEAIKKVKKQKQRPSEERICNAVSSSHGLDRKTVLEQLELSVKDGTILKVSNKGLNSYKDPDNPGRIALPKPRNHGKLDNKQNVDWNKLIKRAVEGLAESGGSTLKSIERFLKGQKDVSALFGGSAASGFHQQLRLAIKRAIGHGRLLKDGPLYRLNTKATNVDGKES
`GAGCCTGA` has an E-score of 0.112.
With `CCCGTGTC` the E-score was 0.224.
With `ACAACACT` the E-score was -0.141.
`CCCGATTC` has an E-score of 0.0872.
For `GAGTTCGC`, the E-score was 0.0383.
The E-score of `ATTGGCCG` is reported as 0.144.
`GTGGCTCA` has an E-score of 0.00511.
`CAGGCAAG` has an E-score of -0.129.
For `CGGCGAAA`, the E-score was 0.279.
For `ACACACGT`, the E-score was -0.0637.
`GCTTTTAA` gave an E-score of 0.0795.
The E-score of `AGTTTCCA` is reported as -0.0996.
`CACTTTCA` gave an E-score of -0.0342.
The E-score of `AACTTCGA` is reported as -0.106.
`GTACCCAC` has an E-score of 0.0215.
The E-score of `GAGCAGTA` is reported as -0.207.
The E-score of `CAGCGCGG` is reported as 0.32.
`CACTTGTC` gave an E-score of -0.12.
`ACGCACAC` has an E-score of 0.133.
For `CAGTAGCC`, the E-score was 0.00911.
With `AACGCACA` the E-score was 0.0169.
`ATCACTGG` gave an E-score of -0.11.
For `GCGCGTTA`, the E-score was 0.35.
`ACACGTGT` gave an E-score of -0.138.
`ACCGTAGA` has an E-score of 0.138.

Sample 2
Target: Prothrombin, mature alpha-thrombin (F2, Homo sapiens, UniProt P00734)
Method: aptamer microarray, sandwich
Form: DNA with 2'F-ANA
Medium: in vitro
Tested at: 200 nM
Notes: whole 15-mer aptamer, many near background
Together with: Cy3 exosite-II aptamer, 400 nM
Reading: higher = stronger binding
Sequence: GGTTGGTGTGGTTGG
`2'F-ANA at 1 3 4 5 11 12 13 15` — result for “mean fluorescence intensity”: 69.8 a.u.
For `2'F-ANA at 1 4 5 6 7 9 11 12 13 14`, “mean fluorescence intensity” read 53.2 a.u.
`2'F-ANA at 1 2 3 4 7 10 11 13 14`: “mean fluorescence intensity” 48.1 a.u.
For `2'F-ANA at 1 2 3 6 7 8 9 10 13 14`, “mean fluorescence intensity” read 91.3 a.u.
Under “mean fluorescence intensity”, `2'F-ANA at 3 4 6 15` is recorded as 515 a.u.
Under “mean fluorescence intensity”, `2'F-ANA at 2 3 4 6 8 10 11 13 14 15` is recorded as 123 a.u.
`2'F-ANA at 1 2 7 8 12 13 14` — result for “mean fluorescence intensity”: 74 a.u.
Under “mean fluorescence intensity”, `2'F-ANA at 1 2 4 5 7 8 11 12` is recorded as 88.9 a.u.
`2'F-ANA at 3 4 7 12 15` — result for “mean fluorescence intensity”: 1030 a.u.
`2'F-ANA at 5 6 7 15`: “mean fluorescence intensity” 73.9 a.u.
Under “mean fluorescence intensity”, `2'F-ANA at 1 5 10 13 15` is recorded as 47.7 a.u.
Under “mean fluorescence intensity”, `2'F-ANA at 4 5 7 10 12 13` is recorded as 109 a.u.
Under “mean fluorescence intensity”, `2'F-ANA at 1 3 4 6 8 9 10 13 14` is recorded as 55.7 a.u.
Under “mean fluorescence intensity”, `2'F-ANA at 5 7 8 11 13 15` is recorded as 92.6 a.u.
For `2'F-ANA at 1 2 4 5 8 11 15`, “mean fluorescence intensity” read 52.7 a.u.
For `2'F-ANA at 3 4 5 6 8 9 10 11`, “mean fluorescence intensity” read 48.5 a.u.
For `2'F-ANA at 4 6 8 9 10 12 13 14 15`, “mean fluorescence intensity” read 52.8 a.u.
`2'F-ANA at 3 4 5 7 8 9 10 11 12 14` — result for “mean fluorescence intensity”: 60.3 a.u.
`2'F-ANA at 2 5 6 8 9 12 13 15`: “mean fluorescence intensity” 185 a.u.
Under “mean fluorescence intensity”, `2'F-ANA at 2 4 5 7 10 11 12 15` is recorded as 61.8 a.u.
For `2'F-ANA at 5 7 14`, “mean fluorescence intensity” read 44.5 a.u.
Under “mean fluorescence intensity”, `2'F-ANA at 1 2 4 6 10 12 13 14` is recorded as 44.6 a.u.
`2'F-ANA at 2 3 4 5 8 11 13 15`: “mean fluorescence intensity” 63.7 a.u.

Sample 3
Target: RING finger protein unkempt homolog, zinc fingers 1-6, SBP tag (UNK, Homo sapiens, UniProt Q9C0B0, residues 30-357)
Sequence of UniProt Q9C0B0 (30-357, looked up): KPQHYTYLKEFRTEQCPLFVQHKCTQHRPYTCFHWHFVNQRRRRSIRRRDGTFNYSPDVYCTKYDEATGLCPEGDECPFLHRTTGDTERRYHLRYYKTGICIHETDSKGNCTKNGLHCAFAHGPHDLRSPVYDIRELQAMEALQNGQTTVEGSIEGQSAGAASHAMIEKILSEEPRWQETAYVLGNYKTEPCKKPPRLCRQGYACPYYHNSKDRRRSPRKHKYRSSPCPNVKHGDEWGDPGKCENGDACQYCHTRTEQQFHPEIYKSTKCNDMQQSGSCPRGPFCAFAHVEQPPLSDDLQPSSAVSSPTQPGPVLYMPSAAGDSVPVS
Method: RNA Bind-n-Seq
Form: RNA
Medium: in vitro
Tested at: 100 nM
Notes: RNA with constant flanks, vertebrate orthologous sites, ends assumed
Baseline: input RNA pool
Reading: higher = stronger binding
`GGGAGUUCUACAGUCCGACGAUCAGUAUCCCAGUUGUACCAUGUUGAGUUGGCAUUGUACAGAAAUUAACAGCCAUAUUGGUCUAGAAACGUUAAAUUUAAUUUUUUCCCAUUUGUACAGGGGUAACGCACUGUAUUAAAUAUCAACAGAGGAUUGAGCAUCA` has a bound/input enrichment of 1.13 ratio.
The bound/input enrichment of `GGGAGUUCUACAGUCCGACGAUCCUCUACGGGCCUCGCAGAGUUGAAAUAAUGGAAGAGGAAAAUGAACAGUAAUCUUCAUGUAGUAUUUAUGCUUAGGUGUGAAAUGCUAUUUGUUGAUCAUUUCUAUAAUCCAGAGCUUUACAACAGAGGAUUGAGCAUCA` is reported as 0.308 ratio.
For `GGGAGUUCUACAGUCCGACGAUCCUCUAUGGGCCUCGCAGAGUUGAAGUAAUGGAAGAGGAAAGUGAACAGUAAUCUUCAUUUUAGUAUUUAUGUUUAGGUGUGAAAUAAAUGUUACUUGUUGAUCAUUUCUAUAAUUCAGAGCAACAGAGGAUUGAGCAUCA`, the bound/input enrichment was 0.912 ratio.
With `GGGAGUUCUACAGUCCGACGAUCGUGACUUUGGACGUCCGUUCAUCCUCGGUGUAGGUUUUACUUAGUCCCGGGCCUGCCGUGUUUGGUUUUUCCCUUUGGGCAGGAGGCCUCUGCCGCAACCAUGUUACGCCAGAUCAUCGGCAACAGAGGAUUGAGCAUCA` the bound/input enrichment was 0.409 ratio.
`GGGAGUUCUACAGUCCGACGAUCAACCUCCUGAACAUCUAGCUUUCAAAUUUUGGCUGUUUUAGAUACUGUUUUUAUUUUCUUUAGAGUUUUCCUGUUUGCCAUCUUCUUUUCCCCUGUUCUCAAGGGUUGACUCACAGAUUUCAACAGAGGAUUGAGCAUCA` has a bound/input enrichment of 4.7 ratio.
For `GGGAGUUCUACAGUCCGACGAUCUUGGGACCAGCUCUCUGAAUAGAAAUAGUAGUAAAAAAACCAAGCAAAAUGAUAUUUGUAUAGACAAAACAGAAGUUAAAUCAUGUAAAAUAAAUGCUGCCAGUGUUCCAGGCCCUAAAGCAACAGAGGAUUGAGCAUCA`, the bound/input enrichment was 2.16 ratio.
`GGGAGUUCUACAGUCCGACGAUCGUAUGUGUGUGCAUUAUUCACAUUCCUGUCUGUUCUGUUGAAGGGGGAAAAAGAGACAUUUUGACCUUUUUUAAGGUUAUUGACUUAAUUUUAUGUUAUUUGGUUGCAUGAAAUUGCCCUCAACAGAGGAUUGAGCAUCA` has a bound/input enrichment of 0.607 ratio.
The bound/input enrichment of `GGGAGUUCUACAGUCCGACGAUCAUCCCAGUUUGUAUGCACAUUAUUCACAUUCCUAUCUGUUGUGUUUGCAGAAAUGACAUUUUACCCUUUUCUAAGGGUUACCUUUUGAUUUUCAUAUUUGGUUGCAUGAAGUUGCCCUUUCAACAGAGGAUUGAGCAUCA` is reported as 0.312 ratio.

Sample 4
Target: Sal-like protein 4, full length isoform A (SALL4, Homo sapiens, UniProt Q9UJQ4, residues 1-1053)
Sequence of UniProt Q9UJQ4 (whole entry, looked up): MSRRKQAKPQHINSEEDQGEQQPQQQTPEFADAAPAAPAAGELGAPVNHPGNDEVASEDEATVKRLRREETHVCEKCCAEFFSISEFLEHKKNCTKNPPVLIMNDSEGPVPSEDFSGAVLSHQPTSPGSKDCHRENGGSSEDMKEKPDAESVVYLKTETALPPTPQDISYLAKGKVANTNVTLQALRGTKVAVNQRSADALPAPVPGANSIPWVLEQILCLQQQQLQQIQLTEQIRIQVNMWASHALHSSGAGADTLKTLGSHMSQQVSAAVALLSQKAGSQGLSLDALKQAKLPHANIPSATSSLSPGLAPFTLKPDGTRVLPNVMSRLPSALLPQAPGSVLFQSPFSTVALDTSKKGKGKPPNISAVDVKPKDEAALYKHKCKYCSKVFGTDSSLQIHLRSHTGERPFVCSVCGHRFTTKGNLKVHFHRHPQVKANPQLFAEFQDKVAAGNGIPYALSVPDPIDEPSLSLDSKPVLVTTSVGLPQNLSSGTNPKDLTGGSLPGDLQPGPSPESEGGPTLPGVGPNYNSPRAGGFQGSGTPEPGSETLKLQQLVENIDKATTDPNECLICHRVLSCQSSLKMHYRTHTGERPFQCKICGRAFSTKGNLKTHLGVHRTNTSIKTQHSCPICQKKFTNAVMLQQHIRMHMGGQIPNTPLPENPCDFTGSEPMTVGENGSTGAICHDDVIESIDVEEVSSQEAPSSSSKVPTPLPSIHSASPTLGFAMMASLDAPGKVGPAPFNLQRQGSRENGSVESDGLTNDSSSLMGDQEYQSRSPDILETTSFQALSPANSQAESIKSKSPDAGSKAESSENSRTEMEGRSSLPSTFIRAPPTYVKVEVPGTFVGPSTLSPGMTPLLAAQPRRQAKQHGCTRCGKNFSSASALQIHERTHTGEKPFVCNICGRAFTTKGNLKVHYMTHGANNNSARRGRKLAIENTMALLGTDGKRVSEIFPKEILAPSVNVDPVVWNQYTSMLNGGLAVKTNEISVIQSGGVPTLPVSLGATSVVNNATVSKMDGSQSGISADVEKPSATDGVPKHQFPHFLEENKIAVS
Method: universal PBM
Form: double-stranded DNA, one strand shown
Medium: in vitro
Tested at: 600 nM
Notes: 8-mer, flanks averaged, mean of replicates
Reading: higher = stronger binding
With `ATCAATTG` the E-score was 0.246.
`ATCTCCAA` gave an E-score of 0.116.
For `AGAGGGCC`, the E-score was -0.235.
With `AGCCGGTA` the E-score was -0.29.
For `CCTCGCTC`, the E-score was -0.0755.
The E-score of `GCCAACAC` is reported as -0.0469.
`ATCCAGCC` has an E-score of -0.227.
For `CACCTAGG`, the E-score was -0.187.
For `CACCTATG`, the E-score was -0.0477.
`GTGGATTA` gave an E-score of 0.108.
`AAATGAAC` has an E-score of 0.244.
`AGTACGCC` gave an E-score of -0.179.
With `CCACGCCA` the E-score was -0.0693.
The E-score of `ATTCTGGC` is reported as -0.0998.
`GGAGTTCA` gave an E-score of -0.047.
The E-score of `GTGTGGCA` is reported as -0.193.
With `AATGTAGG` the E-score was 0.0166.

Sample 5
Target: CCNE2, cyclin fold, Cln2 fusion (human)
Method: yeast growth competition, sequencing
Medium: yeast
Notes: strong parent motif
Baseline: not given
Reading: higher = stronger binding
Parent: SCAPER docking peptide (human); SNARRSLNFGGST; partner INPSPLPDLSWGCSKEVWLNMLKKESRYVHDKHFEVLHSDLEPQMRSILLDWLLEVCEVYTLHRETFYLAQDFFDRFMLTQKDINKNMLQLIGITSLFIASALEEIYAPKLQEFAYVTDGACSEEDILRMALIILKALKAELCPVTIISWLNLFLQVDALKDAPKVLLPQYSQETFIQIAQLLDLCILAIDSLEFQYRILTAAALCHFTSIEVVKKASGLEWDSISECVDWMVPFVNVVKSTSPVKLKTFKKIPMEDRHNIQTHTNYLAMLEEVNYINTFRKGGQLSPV
`SSARRSLNFGGST [N2S]` — result for “normalised enrichment score”: 1.86.
`SNARRSLNFFGST [G10F]` — result for “normalised enrichment score”: 0.654.
Under “normalised enrichment score”, `SNARRSGNFGGST [L7G]` is recorded as 0.366.
`SNARRSLNFGGSE [T13E]`: “normalised enrichment score” 1.55.
Under “normalised enrichment score”, `SNAGRSLNFGGST [R4G]` is recorded as 0.117.
For `SNARRSLNFGGSW [T13W]`, “normalised enrichment score” read 0.735.
`SNARRSLNFYGST [G10Y]` — result for “normalised enrichment score”: 1.16.
`SNARRSLNFGIST [G11I]`: “normalised enrichment score” 0.895.
`SNARRSLNFGWST [G11W]`: “normalised enrichment score” 1.26.
Under “normalised enrichment score”, `SNARRSLWFGGST [N8W]` is recorded as 1.38.
`SNARRSLNFCGST [G10C]`: “normalised enrichment score” 1.42.
Under “normalised enrichment score”, `SNARRSLLFGGST [N8L]` is recorded as 0.413.
Under “normalised enrichment score”, `SNARRSLPFGGST [N8P]` is recorded as 0.62.
For `SNNRRSLNFGGST [A3N]`, “normalised enrichment score” read 0.457.
For `SNARRSLYFGGST [N8Y]`, “normalised enrichment score” read 0.75.
`SNARRSLNFGGSF [T13F]`: “normalised enrichment score” 0.817.
For `SNPRRSLNFGGST [A3P]`, “normalised enrichment score” read 0.385.
`SNRRRSLNFGGST [A3R]`: “normalised enrichment score” 0.445.
